# Measured values from different studies.
# Numbered parts are unrelated; each lists some results of a single study. Several values in a cell are separate wells, animals, samples, runs or records. Positions count from the first letter of the parent shown.
# Sequence of UniProt P29597 (whole entry, looked up): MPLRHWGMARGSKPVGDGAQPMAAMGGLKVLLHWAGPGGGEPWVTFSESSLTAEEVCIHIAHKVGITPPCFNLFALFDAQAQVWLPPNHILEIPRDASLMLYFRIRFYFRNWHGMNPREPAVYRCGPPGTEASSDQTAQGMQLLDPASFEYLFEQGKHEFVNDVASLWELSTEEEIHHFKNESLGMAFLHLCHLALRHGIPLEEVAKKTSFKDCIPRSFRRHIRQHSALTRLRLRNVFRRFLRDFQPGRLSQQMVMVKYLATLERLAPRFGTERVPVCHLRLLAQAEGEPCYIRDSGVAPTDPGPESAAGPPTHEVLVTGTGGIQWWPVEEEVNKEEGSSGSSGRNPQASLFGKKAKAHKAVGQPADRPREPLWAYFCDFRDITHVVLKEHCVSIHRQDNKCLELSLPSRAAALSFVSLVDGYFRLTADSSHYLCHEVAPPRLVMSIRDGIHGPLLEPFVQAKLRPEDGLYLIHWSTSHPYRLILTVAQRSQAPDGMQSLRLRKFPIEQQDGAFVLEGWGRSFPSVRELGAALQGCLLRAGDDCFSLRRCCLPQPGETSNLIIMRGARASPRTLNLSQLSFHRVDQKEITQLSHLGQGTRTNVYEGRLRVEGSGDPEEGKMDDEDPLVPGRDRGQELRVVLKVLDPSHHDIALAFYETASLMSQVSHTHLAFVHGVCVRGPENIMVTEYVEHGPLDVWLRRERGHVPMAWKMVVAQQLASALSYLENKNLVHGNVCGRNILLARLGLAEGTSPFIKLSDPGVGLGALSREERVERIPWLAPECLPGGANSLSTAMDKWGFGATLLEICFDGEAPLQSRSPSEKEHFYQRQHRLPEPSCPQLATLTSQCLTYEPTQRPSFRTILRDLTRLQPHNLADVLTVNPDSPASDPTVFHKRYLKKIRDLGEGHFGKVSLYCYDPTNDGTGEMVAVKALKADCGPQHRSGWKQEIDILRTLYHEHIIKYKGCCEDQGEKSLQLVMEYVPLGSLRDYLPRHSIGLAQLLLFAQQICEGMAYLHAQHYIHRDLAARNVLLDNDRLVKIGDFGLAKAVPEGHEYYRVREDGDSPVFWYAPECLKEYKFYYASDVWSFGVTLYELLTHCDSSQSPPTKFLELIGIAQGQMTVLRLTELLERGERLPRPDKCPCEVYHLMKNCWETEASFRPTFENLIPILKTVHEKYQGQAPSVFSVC

# Series 1
# Target: CCND3, cyclin fold, Cln2 fusion (human)
# Method: yeast growth competition, sequencing
# Sample: yeast
# Setting: weak parent motif
# Baseline: not given
# Reading: higher = stronger binding
# Starting sequence: viral docking peptide; YKVKRRLVFGADD; partner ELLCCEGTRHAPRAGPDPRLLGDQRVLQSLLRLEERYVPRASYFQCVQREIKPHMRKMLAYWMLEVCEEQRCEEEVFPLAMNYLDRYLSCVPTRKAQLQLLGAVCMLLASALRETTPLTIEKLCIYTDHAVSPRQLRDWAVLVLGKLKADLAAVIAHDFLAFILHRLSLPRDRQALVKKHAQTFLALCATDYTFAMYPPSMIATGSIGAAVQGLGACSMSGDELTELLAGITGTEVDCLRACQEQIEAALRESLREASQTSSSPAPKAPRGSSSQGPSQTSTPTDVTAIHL
Variant,normalised enrichment score
R5W,-0.249
F9H,0.381
L7T,0.296
R6N,0.0284
V8D,1.25
G10Q,0.285
R5L,-0.0855
V8Y,0.286

# Series 2
# Target: HLA class I histocompatibility antigen, A alpha chain, allele A*26:03 (Homo sapiens, UniProt P04439)
# Observed: peptide-MHC binding
# Form: peptide
# Tested at: concentration not given
Sequence,binding
AVVEKWLGM,inactive
MKWMMAMKY,inactive
KYFVRSTEK,inactive
SIPQDGAKM,inactive
SSDDIPPRW,inactive
PHPVVVRTL,inactive
LFLSFCSLF,inactive
AVFDSFVER,inactive

# Further values, each from its own experiment
Substance,target or system,assay,test system,conditions,scale,measurement,result
COc1ccc2c(c1)/C(=C/c1cnc[nH]1)C(=O)N2,"TYK2 (Homo sapiens, UniProt P29597)","enzyme activity, inhibitor",,0.5 µM,baseline: control,remaining activity,45%
meglumine antimoniate,Leishmania infantum chagasi,,"MHOM/BR/1972/BH46, golden hamster chronic infection, liver","intraperitoneal, 50 mg/kg/day, 10 days",,parasite load,10500 amastigotes/g tissue and 63.7 amastigotes/g tissue and 509 amastigotes/g tissue and 1510 amastigotes/g tissue and 73 amastigotes/g tissue

# A few entries again (series 1):
Variant,normalised enrichment score
R5W,-0.249
